Assay results from different studies.
Protocols differ between the studies behind these lines. Numbers after ± are the reported error.

SMILES = CCCC[C@H](NC(=O)CN1CCC(NC(=O)CN2CCN(CC(=O)O)CCN(CC(=O)O)CCN(CC(=O)O)CC2)CC1)C(=O)N[C@H]1CC(=O)NCCCC[C@@H](C(N)=O)NC(=O)[C@H](Cc2c[nH]c3ccccc23)NC(=O)[C@H](CCCNC(=N)N)NC(=O)[C@@H](Cc2ccccc2)NC(=O)[C@H](Cc2c[nH]cn2)NC1=O [gallium-68 labelled]; test system = C57BL/6J mice male B16-F10 tumour, spleen; conditions = 1 h post injection, unblocked; tissue uptake = 0.3 ± 0.1 %ID/g
SMILES = NC12CNCCNCC(NCc3ccc(CNC(=O)CCCC(=O)NCc4ccc(-c5nncnn5)cc4)cc3)(CNCCNC1)CNCCNC2.[64Cu+2]; test system = athymic nude mice SW1222 xenograft, lung; conditions = 4 h post injection, 24 h accumulation interval, added: huA33-TCO pretargeting; tissue uptake = 1.55 ± 0.45 %ID/g
SMILES = CCCC[C@H](NC(=O)CNC(=O)CNC(=O)CN1CCN(CC(=O)O)CCN(CC(=O)O)CCN(CC(=O)O)CC1)C(=O)N[C@H]1CC(=O)NCCCC[C@@H](C(N)=O)NC(=O)[C@H](Cc2c[nH]c3ccccc23)NC(=O)[C@H](CCCNC(=N)N)NC(=O)[C@@H](Cc2ccccc2)NC(=O)[C@H](Cc2c[nH]cn2)NC1=O [gallium-67 labelled]; test system = female C57 mice, B16/F1 melanoma, brain; conditions = intravenous, 0.037 MBq, 24 h; tissue uptake = 0.06 ± 0.03 %ID/g
SMILES = CCCC[C@@H]1NC(=O)[C@@H](NC(=O)[C@H](CCC(=O)O)NC(=O)CNC(=O)CN2CCN(CC(=O)O)CCN(CC(=O)O)CCN(CC(=O)O)CC2)CCCCNC(=O)C[C@@H](C(N)=O)NC(=O)[C@H](C(C)C)NC(=O)[C@@H]2CCCN2C(=O)[C@H](CCCNC(=N)N)NC(=O)CNC(=O)[C@H](Cc2c[nH]c3ccccc23)NC(=O)[C@H](CCCNC(=N)N)NC(=O)[C@@H](Cc2ccccc2)NC(=O)[C@H](Cc2c[nH]cn2)NC(=O)[C@H](CCC(=O)O)NC1=O [gallium-67 labelled]; test system = C57 mice, B16/F1 flank melanoma, pancreas; conditions = intravenous, 2 h, added: blocking peptide 10 µg; tissue uptake = 0.09 ± 0.01 %ID/g
SMILES = O=C([O-])c1cccc(CN(CCN(Cc2cn(Cc3ccccc3)nn2)Cc2cccc(C(=O)[O-])n2)Cc2cn(Cc3ccccc3)nn2)n1.[64Cu+2]; test system = healthy athymic nude mice, lung; conditions = intravenous, 1 h; tissue uptake = 6.39 %ID/g
SMILES = O=C([O-])CN1CCN(CC(=O)[O-])CCN(CC(=O)NCCc2ccc3c(c2)C2C=CCC2C(c2cc4c(cc2Br)OCO4)N3)CCN(CC(=O)[O-])CC1.[111In+3] (centres unmarked); test system = mice with Hec50 tumour xenograft, urinary bladder; conditions = 2 h; tissue uptake = 0.15 ± 0.05 %ID/g
SMILES = O=C([O-])CN1CCN(CC(=O)[O-])CCN(CC(=O)[O-])CCN(CC(=O)[O-])CC1.[64Cu+2]; test system = healthy athymic nude mice, heart; conditions = intravenous, 15 min; tissue uptake = 1.53 %ID/g
SMILES = CC(C)[C@H](NC(=O)[C@@H]1CCCN1C(=O)[C@H](CCCNC(=N)N)NC(=O)[C@H](CS)NC(=O)[C@H](Cc1c[nH]c2ccccc12)NC(=O)[C@H](CCCNC(=N)N)NC(=O)[C@@H](Cc1ccccc1)NC(=O)[C@H](Cc1c[nH]cn1)NC(=O)[C@H](CCC(=O)O)NC(=O)[C@H](CS)NC(=O)[C@H](CS)NC(=O)[C@@H]1CC(=O)N[C@@H](CCCNC(=N)N)C(=O)NCC(=O)N[C@@H](CC(=O)O)C(=O)N[C@H](Cc2ccc(O)cc2)C(=O)N1)C(N)=O [technetium-99m labelled]; test system = C57 mice B16/F1 melanoma female, intestines; conditions = iv, 0.037 MBq, 4 h; tissue uptake = 1.35 ± 0.24 %ID

A few entries again:
SMILES = O=C([O-])CN1CCN(CC(=O)[O-])CCN(CC(=O)NCCc2ccc3c(c2)C2C=CCC2C(c2cc4c(cc2Br)OCO4)N3)CCN(CC(=O)[O-])CC1.[111In+3] (centres unmarked); test system = mice with Hec50 tumour xenograft, urinary bladder; conditions = 2 h; tissue uptake = 0.15 ± 0.05 %ID/g
